Experimental data pooled from the literature.
A part holds a random share of what one study measured.

Block 1
Target: Replicase polyprotein 1ab, polymerase (rep, Severe acute respiratory syndrome coronavirus 2, UniProt P0DTD1)
Read-out: enzyme activity
Mode: inhibitor
Concentration: 20 µM
Measurement: inhibition
NCC(=O)N[C@@H](CCC(N)=O)C(=O)O: -4.74%
C=CC(N)CCC(=O)O (stereo not shown): -2.07%
N#C/C(=C\c1ccc(O)c(O)c1)C(=O)OCCc1cccs1: 97.9%
COc1cccc(OC)c1-c1ccc(C[C@H](NC(=O)c2c(Cl)cccc2Cl)C(=O)O)cc1: -0.99%
N#Cc1ccncn1: 1.78%
CN1CCN(Cc2ccc(Nc3ncc(Cl)c(Nc4ccccc4S(=O)(=O)N(C)C)n3)cc2)CC1: -1.63%
CC(=O)OCC(=O)[C@@]1(O)CC[C@H]2[C@@H]3CCC4=CC(=O)CC[C@]4(C)[C@H]3C(=O)C[C@@]21C: -9.03%
NC(=S)N/N=C/c1ncccc1N: 0.08%
C=C1C[C@@]2(O)O[C@@]3(C[C@H]2C(C)C)[C@@H](C)CC[C@@H]13: -2.9%
CN(C)CCn1cc(S(=O)(=O)c2cccc(F)c2)c2cccnc21: 1.09%
C[C@@H]1C[C@H]2[C@@H]3CCC4=CC(=O)C=C[C@]4(C)[C@@]3(Cl)[C@@H](O)C[C@]2(C)[C@@]1(O)C(=O)CCl: 0.19%
CCCCOc1cc(C(=O)NCCN(CC)CC)c2ccccc2n1: 17.3%
O=C(O)c1ccccc1Nc1ccc(CCc2ccc(Cl)c(Cl)c2)cc1: 81.8%
COc1ccc(C(=O)C2CCN(CC(=O)N(Cc3nc4c(c(=O)[nH]3)COCC4)CC3CC3)CC2)cc1: 1.23%
N#C/C(=C\c1ccc(O)c(O)c1)C(=O)NCCCCc1ccccc1: 111%
CC(=O)Oc1cccc(C(=O)O)c1OC(C)=O: -7.31%
CC1(C)O[C@@H]2[C@@H](CO[C@@]3(COS(N)(=O)=O)OC(C)(C)O[C@@H]23)O1: -0.25%
CO/N=C(\C(=O)N[C@@H]1C(=O)N2C(C(=O)O)=C(CSC(=O)c3ccco3)CS[C@H]12)c1csc(N)n1: 1.88%
Cc1cccc(Nc2cc(Cl)nc(SCC(=O)O)n2)c1C: 2.37%
Cc1ncc(CNC(=O)N(CCCl)N=O)c(N)n1: -2.88%
COc1ccc(-c2cc(=O)c3c(O)c(OC)c(O)cc3o2)cc1OC: 24.6%
C#C[C@]1(O)CC[C@H]2[C@@H]3CCc4cc(OC5CCCC5)ccc4[C@H]3CC[C@@]21C: -6.33%
C/C=C1\NC(=O)[C@H]2CSSCC/C=C/[C@H](CC(=O)N[C@H](C(C)C)C(=O)N2)OC(=O)[C@H](C(C)C)NC1=O: 2.98%
CC(C)(C)Sc1c(CC(C)(C)C(=O)O)n(Cc2ccc(Cl)cc2)c2ccc(OCc3ccc4ccccc4n3)cc12: 1%
CCCN(C/C=C/I)C1CCc2ccc(O)cc2C1 (stereo not shown): 0.07%

Block 2
Target: Histone acetyltransferase KAT6A, winged helix 2, GST fusion (KAT6A, Homo sapiens, UniProt Q92794, residues 85-181)
Method: protein binding microarray
Form: double-stranded DNA, one strand shown
Matrix: in vitro
Concentration: not given
Setting: 8-mer, flanks averaged, mean of 2 arrays, mostly near background
Relative to: not given
Direction: higher = stronger binding
Measurement: E-score
Residues (chain): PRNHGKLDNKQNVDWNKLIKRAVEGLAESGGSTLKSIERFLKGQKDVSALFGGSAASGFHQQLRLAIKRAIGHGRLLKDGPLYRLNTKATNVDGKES
ATCATACG: 0.027
ACAAGATC: -0.0475
CATAATAG: -0.112
ACTCACCG: 0.0275
GCTGCATA: 0.174
TAGTCACA: -0.143
AGTTATAT: -0.0408
CCACAACA: -0.0887

Block 3
Target: Interferon regulatory factor 5, full length, phosphomimetic (IRF5, Homo sapiens, UniProt Q13568-2, residues 1-514, S451D/S453D/S456D/S462D)
Method: protein-binding microarray
Form: double-stranded DNA, one strand shown
Matrix: in vitro
Concentration: 940 nM top
Setting: 60-bp whole probe
With: salmon DNA 0.4 mg/ml
Relative to: random background probes
Direction: higher = stronger binding
Measurement: fitted relative affinity
All sequences stand within: GCCTAGCAC … GTCTTGATTCGCTTGACGCTGCTG
GACGGTTTCAGTTTCGAGACGTGCTAG: 7.5 z-score
TTAGTTTTCGACTATCGGTTAGTGCTA: 2.67 z-score
TCATTTCTGTTGTCTGTGACTGTGCTA: 1.27 z-score
GACGATCTCAGTATCGTGACGTGCTAG: 0.743 z-score
CTGGCTTTGACTCTTTCTGTGTGCTAG: 0.086 z-score
TTAGGTATCCTTTTCCTTTTGTGCTAG: 0.837 z-score
TTAGATTTGAGACTGGATTAGTGCTAG: -0.277 z-score
TAAGGTTTCCTTTCCCTTTAGTGCTAG: 1.9 z-score

Block 4
Target: Sal-like protein 4, full length isoform B (SALL4, Homo sapiens, UniProt Q9UJQ4-2, residues 1-616)
Method: universal PBM
Form: double-stranded DNA, one strand shown
Matrix: in vitro
Concentration: not given
Setting: 8-mer, flanks averaged, mean of replicates
Direction: higher = stronger binding
Measurement: E-score
Construct (chain): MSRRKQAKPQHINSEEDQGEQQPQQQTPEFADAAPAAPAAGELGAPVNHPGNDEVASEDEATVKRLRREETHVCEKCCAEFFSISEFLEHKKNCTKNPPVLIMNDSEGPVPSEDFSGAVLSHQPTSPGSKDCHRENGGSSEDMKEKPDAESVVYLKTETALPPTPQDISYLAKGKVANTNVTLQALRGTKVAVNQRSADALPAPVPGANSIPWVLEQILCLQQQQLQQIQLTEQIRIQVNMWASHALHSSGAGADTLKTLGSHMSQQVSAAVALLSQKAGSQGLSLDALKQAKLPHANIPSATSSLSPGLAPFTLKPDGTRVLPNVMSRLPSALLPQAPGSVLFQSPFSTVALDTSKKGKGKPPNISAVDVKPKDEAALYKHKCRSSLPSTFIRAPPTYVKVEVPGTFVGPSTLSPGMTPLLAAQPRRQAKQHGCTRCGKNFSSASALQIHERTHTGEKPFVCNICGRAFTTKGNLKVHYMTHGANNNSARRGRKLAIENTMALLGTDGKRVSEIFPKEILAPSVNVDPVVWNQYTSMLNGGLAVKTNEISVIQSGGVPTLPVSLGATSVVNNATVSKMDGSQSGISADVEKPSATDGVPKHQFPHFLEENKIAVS
TTACCTAA: 0.188
CGGTTAGC: -0.195
CCTCGGGA: -0.297
CGGCCCCA: -0.28
ACTGCCAG: -0.11
CTAAGCAC: -0.112
AATAACAG: 0.321
AAGGAGGA: 0.0895

Other studies, line by line
Target: Replicase polyprotein 1ab, main protease (rep, Severe acute respiratory syndrome coronavirus 2, UniProt P0DTD1)
Read-out: enzyme activity
Mode: inhibitor
CCCCC(CC)C/N=C(\N)N/C(N)=N/CCCCCC/N=C(\N)N/C(N)=N/CC(CC)CCCC (stereo not shown)
inhibition (20 µM, primary screen): 29.8%

C=C1c2cccc(O)c2C(=O)C2C(=O)[C@]3(O)C(=O)C(C(N)=O)C(=O)[C@@H](N(C)C)[C@@H]3[C@@H](O)[C@H]12 (stereo partly shown)
IC50: > 20 µM

N#Cc1c(-c2ccccc2)cc(-c2cc(Br)ccc2O)[nH]c1=O
inhibition (20 µM, primary screen): 31.6%

Repeated from above (block 4):
CGGTTAGC: -0.195
CCTCGGGA: -0.297
CGGCCCCA: -0.28
ACTGCCAG: -0.11
CTAAGCAC: -0.112
AATAACAG: 0.321
